# Results gathered from unrelated publications.
# Compare with care: the assays were run in different laboratories. ± marks the error that the study gave.
SMILES,target,test,system,setting,IC50
CN[C@@H]1[C@H](O)[C@H](NC)[C@H]2O[C@]3(O)[C@H](O[C@@H]2[C@H]1O)O[C@H](C)C[C@H]3NC(=O)Cc1ccccn1,Mycolicibacterium smegmatis 70S ribosome,"translation, luciferase reporter",,,0.89 µg/mL
O=C1c2ccc3c4cccc5c(N6CCNCC6)ccc(c6ccc(c2c36)C(=O)N1CCN1CCCCC1)c54,human telomerase,modified TRAP,,cell-free,6.9 ± 0.2 µM
C[C@H](N)[C@H]1O[C@@H](O[C@@H]2[C@@H](O)[C@H](N)C[C@H](N)[C@H]2O[C@H]2O[C@H]([C@@H](C)O)[C@@H](O)[C@H](O)[C@H]2N)[C@H](O)[C@@H]1O,Leishmania tarentolae ribosome,"cell-free translation, inhibitor, measured: EGFP reporter",Leishmania tarentolae S30 extract,,0.4 ± 0.03 µM
CO[C@H]1[C@H](O)[C@@H](N)[C@@H](O[C@H]2[C@H](O[C@@H]3O[C@H](CO)[C@@H](O[C@H]4O[C@@H](CN)[C@@H](O)[C@H](O)[C@H]4N)[C@H]3O)[C@@H](O)[C@H](N)C[C@@H]2N)O[C@@H]1CO,rabbit reticulocyte ribosome,"luciferase translation, cell-free translation",rabbit reticulocyte lysate,,40.9 ± 8.39 µg/mL
Cc1cccc(C)c1NC(=O)[C@@H]1CCN(Cc2ccccc2)C1,"Nav1.4, Pelophylax lessonae","sodium current, use-dependent blocker, vaseline gap voltage clamp",skeletal muscle fibres,10 Hz pulse trains,1.8 ± 0.1 µM
CN[C@H]1[C@@H](O)[C@@H](NC)C[C@H]2O[C@@H]3O[C@H](C)CC(=O)[C@]3(O)O[C@H]12,Mycolicibacterium smegmatis 70S ribosome,"translation, luciferase reporter",,,> 60 µg/mL
CCN(CC)CCN1C(=O)c2ccc3c4cccc5cccc(c6ccc(c2c36)C1=O)c54,human telomerase,modified TRAP,,cell-free,7.6 ± 0.1 µM
O=C(/C=C/c1ccc(Cl)cc1)N1CCC2(CC1)CN(Cc1ccc(Cl)c(Cl)c1)C(=O)O2,human EBI2,"ERK1/2 phosphorylation, antagonist",CHO expressing EBI2,"added: 7α,25-OHC 1 nM",0.008 µM
N=C(N)SCc1ccccc1CSC(=N)N,human IDO1,kynurenine production,A-431,"24 h, added: IFN-γ, L-tryptophan 178 µM",0.74 µM
N/C(=N\O)c1ccc2c(c1)Oc1ccccc1N2Cc1cccc(C(=O)NO)c1,HeLa nuclear HDACs,"enzyme activity, inhibitor",,added: Boc-Lys(Ac)-AMC,15 ± 1.2 µM
COCOC[C@H]1O[C@H](O[C@H]2[C@H](O[C@@H]3O[C@H](CO)[C@@H](O[C@H]4O[C@@H](CN)[C@@H](O)[C@H](O)[C@H]4N)[C@H]3O)[C@@H](O)[C@H](N)C[C@@H]2N)[C@H](N)[C@@H](O)[C@@H]1OCOC,rabbit reticulocyte ribosome,"luciferase translation, cell-free translation",rabbit reticulocyte lysate,,91 ± 8 µg/mL
O=C(NO)c1ccc(CN2c3ccccc3Oc3ccc(C(=O)Nc4ccc(C(=O)c5ccccc5)cc4)cc32)cc1,HeLa nuclear HDACs,"enzyme activity, inhibitor",,added: Boc-Lys(Ac)-AMC,0.54 µM
COCO[C@H]1[C@H](O)[C@@H](N)[C@@H](O[C@H]2[C@H](O[C@@H]3O[C@H](CO)[C@@H](O[C@H]4O[C@@H](CN)[C@@H](O)[C@H](O)[C@H]4N)[C@H]3O)[C@@H](O)[C@H](N)C[C@@H]2N)O[C@@H]1CO,rabbit reticulocyte ribosome,"luciferase translation, cell-free translation",rabbit reticulocyte lysate,,43.1 ± 1.88 µg/mL
Cc1cccc(C)c1NC(=O)[C@@H]1CCCN1Cc1ccccc1,"Nav1.4, Pelophylax lessonae","sodium current, use-dependent blocker, vaseline gap voltage clamp",skeletal muscle fibres,10 Hz pulse trains,31.3 ± 5.7 µM
CCCCCO[C@H]1[C@H](O)[C@@H](N)[C@@H](O[C@H]2[C@H](O[C@@H]3O[C@H](CO)[C@@H](O[C@H]4O[C@@H](CN)[C@@H](O)[C@H](O)[C@H]4N)[C@H]3O)[C@@H](O)[C@H](N)C[C@@H]2N)O[C@@H]1CO,rabbit reticulocyte ribosome,"luciferase translation, cell-free translation",rabbit reticulocyte lysate,,49.7 ± 3.48 µg/mL
O=C1c2ccc3c4ccc5c6c(ccc(c7ccc(c2c37)C(=O)N1CCN1CCCCC1)c64)C(=O)N(CCN1CCCCC1)C5=O,human telomerase,modified TRAP,,cell-free,9.5 ± 0.8 µM

# For quick reference, copied from above:
SMILES,target,test,system,setting,IC50
CCN(CC)CCN1C(=O)c2ccc3c4cccc5cccc(c6ccc(c2c36)C1=O)c54,human telomerase,modified TRAP,,cell-free,7.6 ± 0.1 µM
